Results from different studies.
Compare with care: the assays were run in different laboratories.
rep main protease: Replicase polyprotein 1ab, main protease (rep, Porcine epidemic diarrhea virus, UniProt P0C6Y4)
NT5E: 5'-nucleotidase (NT5E, Homo sapiens, UniProt P21589)
Sequence of UniProt P21589 (whole entry, looked up): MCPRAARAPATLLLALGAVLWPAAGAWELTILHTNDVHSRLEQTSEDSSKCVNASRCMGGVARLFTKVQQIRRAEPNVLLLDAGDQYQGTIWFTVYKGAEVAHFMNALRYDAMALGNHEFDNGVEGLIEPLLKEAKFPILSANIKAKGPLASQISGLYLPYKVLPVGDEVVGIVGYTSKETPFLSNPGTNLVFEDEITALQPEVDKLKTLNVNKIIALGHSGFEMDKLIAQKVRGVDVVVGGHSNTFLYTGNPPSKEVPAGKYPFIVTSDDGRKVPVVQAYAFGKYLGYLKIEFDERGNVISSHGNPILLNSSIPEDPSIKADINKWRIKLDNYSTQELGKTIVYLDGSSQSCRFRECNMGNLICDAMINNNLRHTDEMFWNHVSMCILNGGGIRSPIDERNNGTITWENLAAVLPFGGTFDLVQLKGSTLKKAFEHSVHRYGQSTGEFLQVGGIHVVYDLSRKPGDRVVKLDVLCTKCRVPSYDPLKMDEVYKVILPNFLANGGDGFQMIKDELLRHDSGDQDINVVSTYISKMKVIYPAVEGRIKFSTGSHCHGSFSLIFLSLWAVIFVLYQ
CDK7 with cyclin H: Cyclin-dependent kinase 7, with cyclin H (CDK7, Homo sapiens, UniProt P50613)
Sequence of UniProt P50613 (whole entry, looked up): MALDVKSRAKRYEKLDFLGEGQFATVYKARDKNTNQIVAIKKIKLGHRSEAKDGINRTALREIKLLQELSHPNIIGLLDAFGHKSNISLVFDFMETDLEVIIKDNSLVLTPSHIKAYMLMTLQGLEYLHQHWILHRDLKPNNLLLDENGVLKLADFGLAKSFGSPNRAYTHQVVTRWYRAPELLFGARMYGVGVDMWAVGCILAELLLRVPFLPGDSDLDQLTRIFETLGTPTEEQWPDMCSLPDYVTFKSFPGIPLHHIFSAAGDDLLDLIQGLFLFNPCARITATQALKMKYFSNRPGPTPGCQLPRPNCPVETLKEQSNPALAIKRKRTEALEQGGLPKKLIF
SLC22A11: Solute carrier family 22 member 11 (SLC22A11, Homo sapiens, UniProt Q9NSA0)
Sequence of UniProt Q9NSA0 (whole entry, looked up): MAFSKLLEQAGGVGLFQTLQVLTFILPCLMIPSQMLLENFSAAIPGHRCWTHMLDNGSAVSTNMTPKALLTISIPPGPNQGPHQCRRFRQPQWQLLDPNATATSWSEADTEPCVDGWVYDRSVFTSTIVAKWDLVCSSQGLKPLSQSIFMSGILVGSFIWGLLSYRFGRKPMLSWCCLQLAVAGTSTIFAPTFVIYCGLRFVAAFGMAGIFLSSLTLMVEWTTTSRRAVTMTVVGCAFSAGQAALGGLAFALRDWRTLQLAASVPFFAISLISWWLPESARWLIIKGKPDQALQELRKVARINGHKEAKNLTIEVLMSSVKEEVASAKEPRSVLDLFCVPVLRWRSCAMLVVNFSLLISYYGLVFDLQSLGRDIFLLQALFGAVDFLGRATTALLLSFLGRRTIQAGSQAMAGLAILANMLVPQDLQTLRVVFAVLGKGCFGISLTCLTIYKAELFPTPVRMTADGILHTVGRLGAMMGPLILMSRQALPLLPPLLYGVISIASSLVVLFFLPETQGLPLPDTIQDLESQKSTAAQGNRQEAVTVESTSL
MAOB: Amine oxidase [flavin-containing] B (MAOB, Homo sapiens, UniProt P27338)
Sequence of UniProt P27338 (whole entry, looked up): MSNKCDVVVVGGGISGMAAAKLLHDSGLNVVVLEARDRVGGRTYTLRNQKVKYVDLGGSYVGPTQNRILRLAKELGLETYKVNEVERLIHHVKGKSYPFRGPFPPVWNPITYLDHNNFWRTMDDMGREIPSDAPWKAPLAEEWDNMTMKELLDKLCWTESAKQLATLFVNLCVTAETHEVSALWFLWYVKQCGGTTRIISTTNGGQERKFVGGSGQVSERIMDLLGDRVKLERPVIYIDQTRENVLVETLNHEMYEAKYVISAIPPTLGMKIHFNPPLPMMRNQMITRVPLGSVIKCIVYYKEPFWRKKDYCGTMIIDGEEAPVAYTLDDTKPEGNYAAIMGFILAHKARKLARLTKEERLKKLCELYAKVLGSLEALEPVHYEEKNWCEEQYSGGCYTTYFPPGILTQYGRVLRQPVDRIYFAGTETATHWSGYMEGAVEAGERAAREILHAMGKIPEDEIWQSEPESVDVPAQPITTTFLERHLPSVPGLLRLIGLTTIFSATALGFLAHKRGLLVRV
AMY2: Pancreatic alpha-amylase (AMY2, Sus scrofa, UniProt P00690)
Sequence of UniProt P00690 (whole entry, looked up): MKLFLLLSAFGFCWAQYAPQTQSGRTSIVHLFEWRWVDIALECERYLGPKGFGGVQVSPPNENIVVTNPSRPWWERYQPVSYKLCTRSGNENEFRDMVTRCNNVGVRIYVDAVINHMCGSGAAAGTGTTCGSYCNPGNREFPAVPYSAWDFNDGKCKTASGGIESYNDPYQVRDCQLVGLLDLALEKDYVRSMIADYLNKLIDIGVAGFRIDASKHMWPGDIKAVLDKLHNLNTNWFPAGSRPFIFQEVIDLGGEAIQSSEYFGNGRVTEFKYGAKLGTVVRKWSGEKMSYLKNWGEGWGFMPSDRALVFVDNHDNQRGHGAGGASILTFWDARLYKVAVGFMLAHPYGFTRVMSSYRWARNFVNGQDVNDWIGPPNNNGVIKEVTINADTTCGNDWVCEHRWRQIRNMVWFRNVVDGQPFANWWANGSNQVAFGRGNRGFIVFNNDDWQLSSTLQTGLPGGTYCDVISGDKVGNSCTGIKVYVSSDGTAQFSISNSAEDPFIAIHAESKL
PIP4K2C: Phosphatidylinositol 5-phosphate 4-kinase type-2 gamma (PIP4K2C, Homo sapiens, UniProt Q8TBX8)
Sequence of UniProt Q8TBX8 (whole entry, looked up): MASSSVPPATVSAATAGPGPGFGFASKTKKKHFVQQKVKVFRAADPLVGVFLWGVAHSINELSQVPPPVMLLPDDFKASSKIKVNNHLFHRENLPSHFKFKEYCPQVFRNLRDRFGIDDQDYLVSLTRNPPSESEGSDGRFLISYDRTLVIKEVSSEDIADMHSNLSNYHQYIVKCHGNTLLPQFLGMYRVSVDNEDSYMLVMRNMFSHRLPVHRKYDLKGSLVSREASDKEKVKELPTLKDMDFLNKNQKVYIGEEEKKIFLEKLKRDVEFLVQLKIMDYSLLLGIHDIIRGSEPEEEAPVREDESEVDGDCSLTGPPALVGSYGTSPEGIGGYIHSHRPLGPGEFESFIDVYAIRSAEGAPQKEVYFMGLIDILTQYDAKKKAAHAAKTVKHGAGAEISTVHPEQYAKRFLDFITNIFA
rep papain-like protease: Replicase polyprotein 1ab, papain-like protease (rep, Porcine epidemic diarrhea virus, UniProt P0C6Y4)
SLC6A2: Sodium-dependent noradrenaline transporter (SLC6A2, Homo sapiens, UniProt P23975)
Sequence of UniProt P23975 (whole entry, looked up): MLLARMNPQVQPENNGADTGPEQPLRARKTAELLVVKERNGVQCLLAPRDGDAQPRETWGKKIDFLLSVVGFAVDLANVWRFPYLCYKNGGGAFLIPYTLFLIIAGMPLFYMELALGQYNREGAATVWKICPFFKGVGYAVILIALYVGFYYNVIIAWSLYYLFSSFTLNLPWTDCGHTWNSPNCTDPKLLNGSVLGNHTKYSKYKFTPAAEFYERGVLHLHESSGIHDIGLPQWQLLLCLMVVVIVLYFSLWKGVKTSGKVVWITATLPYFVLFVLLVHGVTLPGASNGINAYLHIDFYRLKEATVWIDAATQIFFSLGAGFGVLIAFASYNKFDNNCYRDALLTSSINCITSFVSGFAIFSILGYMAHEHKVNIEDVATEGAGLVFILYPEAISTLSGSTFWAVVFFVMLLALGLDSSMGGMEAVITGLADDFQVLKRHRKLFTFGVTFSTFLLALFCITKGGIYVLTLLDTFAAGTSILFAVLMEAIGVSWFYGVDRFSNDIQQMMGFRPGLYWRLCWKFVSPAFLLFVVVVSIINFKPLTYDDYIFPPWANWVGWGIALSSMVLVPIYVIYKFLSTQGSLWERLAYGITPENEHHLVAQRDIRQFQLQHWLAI
Sequence of UniProt O14757 (whole entry, looked up): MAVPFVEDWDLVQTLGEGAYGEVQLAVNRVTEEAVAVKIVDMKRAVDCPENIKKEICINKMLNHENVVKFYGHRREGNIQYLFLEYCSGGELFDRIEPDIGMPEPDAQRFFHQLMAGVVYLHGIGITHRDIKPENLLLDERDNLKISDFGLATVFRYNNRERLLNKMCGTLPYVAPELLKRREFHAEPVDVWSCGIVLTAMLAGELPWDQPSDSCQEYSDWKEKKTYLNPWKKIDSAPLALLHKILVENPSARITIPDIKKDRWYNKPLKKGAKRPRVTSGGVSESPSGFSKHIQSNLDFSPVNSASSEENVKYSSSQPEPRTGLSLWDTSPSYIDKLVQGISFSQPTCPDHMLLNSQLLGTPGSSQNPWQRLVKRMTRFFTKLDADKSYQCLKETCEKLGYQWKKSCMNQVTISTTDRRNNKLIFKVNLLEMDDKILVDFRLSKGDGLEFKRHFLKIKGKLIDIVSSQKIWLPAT
Sequence of UniProt O42275 (whole entry, looked up): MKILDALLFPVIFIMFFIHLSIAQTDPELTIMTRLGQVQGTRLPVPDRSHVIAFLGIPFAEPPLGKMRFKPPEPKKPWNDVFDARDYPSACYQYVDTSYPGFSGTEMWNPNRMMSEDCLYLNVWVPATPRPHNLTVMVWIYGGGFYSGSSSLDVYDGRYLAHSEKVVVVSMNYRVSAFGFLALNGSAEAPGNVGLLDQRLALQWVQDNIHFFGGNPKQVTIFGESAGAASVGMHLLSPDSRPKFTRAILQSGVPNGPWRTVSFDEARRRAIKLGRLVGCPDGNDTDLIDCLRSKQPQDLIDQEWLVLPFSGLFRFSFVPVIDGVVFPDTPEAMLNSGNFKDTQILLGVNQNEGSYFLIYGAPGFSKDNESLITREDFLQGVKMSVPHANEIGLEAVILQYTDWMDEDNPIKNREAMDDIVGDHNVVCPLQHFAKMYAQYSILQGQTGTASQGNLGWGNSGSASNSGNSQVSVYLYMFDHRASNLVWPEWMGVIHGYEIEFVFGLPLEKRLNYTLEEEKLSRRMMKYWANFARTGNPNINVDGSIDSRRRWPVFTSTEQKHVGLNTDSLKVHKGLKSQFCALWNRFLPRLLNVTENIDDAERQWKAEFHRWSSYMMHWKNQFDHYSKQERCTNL
Sequence of UniProt Q00535 (whole entry, looked up): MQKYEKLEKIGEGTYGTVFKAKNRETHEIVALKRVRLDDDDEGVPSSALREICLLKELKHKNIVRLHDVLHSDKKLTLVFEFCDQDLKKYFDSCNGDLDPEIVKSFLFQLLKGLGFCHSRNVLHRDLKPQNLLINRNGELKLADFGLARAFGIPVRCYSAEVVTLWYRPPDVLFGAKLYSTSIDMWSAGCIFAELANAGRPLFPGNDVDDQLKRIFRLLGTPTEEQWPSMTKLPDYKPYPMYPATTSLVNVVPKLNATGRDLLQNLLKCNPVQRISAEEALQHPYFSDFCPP

Structure (SMILES)	target	assay	setting	inhibition [%]
Cc1ccccc1C(=O)NCc1cc(O)c(O)c(Br)c1	rep main protease	enzyme activity, inhibitor, FRET	10 µM	90.2
CC[C@H](C)[C@H](NC(=O)[C@H](CCC(N)=O)NC(=O)[C@@H](NC(=O)[C@H](CCSC)NC(=O)[C@H](CCCCN)NC(=O)[C@H](CO)NC(=O)[C@@H](NC(=O)[C@H](CCSC)NC(=O)[C@H](CC(C)C)NC(=O)[C@H](CC(N)=O)NC(=O)[C@@H](NC(=O)[C@@H](NC(=O)[C@H](CO)NC(=O)[C@H](CC(C)C)NC(=O)[C@H](C)NC(=O)[C@H](CCCNC(=N)N)NC(=O)[C@H](CCC(=O)O)NC(=O)[C@H](Cc1ccc(O)cc1)NC(=O)[C@H](Cc1ccccc1)NC(=O)[C@H](C)NC(=O)[C@H](CC(N)=O)NC(=O)[C@@H](N)CCCCN)[C@@H](C)CC)[C@@H](C)CC)[C@@H](C)O)C(C)C)C(=O)N[C@@H](CC(N)=O)C(=O)N[C@H](C(=O)O)C(C)C	Cyclin-dependent kinase 5, with p35 (CDK5, Homo sapiens, UniProt Q00535)	enzyme activity, inhibitor, radiometric	1 µM	3
NC/C(=C\F)COc1cccc(Cn2c(=S)[nH]c(=O)c3[nH]cnc32)c1	Endothelin receptor type B (EDNRB, Homo sapiens, UniProt P24530)	ligand displacement, radioligand	10 µM	< 50
Cc1cc(C)c(C#N)c(SCC(=O)NCc2ccccc2)n1	NT5E	enzyme activity, inhibitor	10 µM	-16
Nc1nccc(-c2c[nH]c3ccccc23)n1	CDK7 with cyclin H	enzyme activity, inhibitor, ADP detection	10 µM	-10
CCCCCc1c2c(cc(O)c1C(=O)O)OC(=O)c1c(cc(OC)cc1C(=O)CCCC)O2	SLC22A11	transporter uptake, inhibitor	25 µM	82.7
COc1cc(CNC(=O)c2ccc(Cl)c(F)c2)cc(Br)c1OC	rep main protease	enzyme activity, inhibitor, FRET	10 µM	33.7
O=C(Nc1cccc(Br)c1)c1ccc2c(c1)C(=O)NC2=O	MAOB	enzyme activity, inhibitor	1 µM	81.3
COCCOCCOCCNC(=O)CSc1nc(-c2ccccc2)cc(C)c1C#N	NT5E	enzyme activity, inhibitor	10 µM	0
Cc1ccc(N(O)N=Nc2ccc(S(=O)(=O)Nc3cc(C)on3)cc2)cc1	AMY2	enzyme activity, inhibitor	20 µg/mL	10.5
C[C@H]1O[C@H](O[C@H]2[C@H](O)[C@@H](O)[C@@H](O[C@H]3[C@H](O)[C@@H](O)C(O)O[C@@H]3CO)O[C@@H]2CO)[C@H](O)[C@@H](O)[C@@H]1N[C@H]1C=C(CO)[C@@H](O)[C@H](O)[C@H]1O (stereo partly shown)	Pancreatic alpha-amylase (Homo sapiens, UniProt P04746)	enzyme activity, inhibitor	50 µg/mL	88.7
CCCCC(=O)Nc1ccc(-c2ccc3ncn(CCC)c(=O)c3c2)c(C)n1	PIP4K2C	binding, competition with immobilised ligand	0.5 µM	94.3
COc1cc(CNC(=O)c2ccc(N(C)C)cc2)cc(Br)c1OC	rep papain-like protease	enzyme activity, inhibitor, FRET	10 µM	17.7
Cc1cccc(N(O)N=Nc2ccc(S(=O)(=O)Nc3nccs3)cc2)c1	AMY2	enzyme activity, inhibitor	240 µg/mL	57.9
COc1ccc(C(=O)NCc2ccc(O)c(O)c2)cc1	rep papain-like protease	enzyme activity, inhibitor, FRET	10 µM	81.5
O=C(Nc1ccccc1F)c1ccc2c(c1)C(=O)NC2=O	MAOB	enzyme activity, inhibitor	1 µM	31.4
CCCC(=O)Nc1ccc(-c2ccc3ncn(Cc4ccccc4)c(=O)c3c2)cn1	PIP4K2C	binding, competition with immobilised ligand	0.5 µM	65.6
COc1cccc(CN2CCC(CN3Cc4cc(OC)c(OC)cc4C3=O)CC2)n1	Acetylcholinesterase (ache, Electrophorus electricus, UniProt O42275)	enzyme activity, inhibitor	1 µM	10.8
Cc1cc(=O)c2c(O)cc(O)c(C3CC[N+](C)([O-])CC3O)c2o1 (stereo not shown)	CDK7 with cyclin H	enzyme activity, inhibitor, ADP detection	10 µM	25.4
O=C(NCc1cc(O)c(O)c(Br)c1)c1ccc(OC(F)(F)F)cc1	rep main protease	enzyme activity, inhibitor, FRET	10 µM	98.3
O=S(=O)(Nc1nccs1)c1ccc(N=NN(O)c2ccccc2)cc1	AMY2	enzyme activity, inhibitor	120 µg/mL	31.6
CCOC(=O)[C@@]12C[C@@H]1[C@@H](n1cnc3c(NCCO)nc(I)nc31)[C@H](O)[C@@H]2O	SLC6A2	ligand displacement, radioligand	10 µM	27

Structure (SMILES)	target	assay	setting	inhibition [%]
O=C(NCc1cc(O)c(O)c(Br)c1)c1ccc2ccccc2c1	rep main protease	enzyme activity, inhibitor, FRET	10 µM	64.7
CCCN(O)N=Nc1ccc(S(=O)(=O)Nc2nccs2)cc1	AMY2	enzyme activity, inhibitor	180 µg/mL	42.1
O=C(NCc1cc(O)c(O)c(Br)c1)N1CCCC1	rep main protease	enzyme activity, inhibitor, FRET	10 µM	103
CN(O)N=Nc1ccc(S(=O)(=O)Nc2nccs2)cc1	AMY2	enzyme activity, inhibitor	240 µg/mL	57.9
COCCOCCOCCNC(=O)CSc1nc(C)cc(-c2ccccc2)c1C#N	NT5E	enzyme activity, inhibitor	10 µM	13
Cc1cc(O)c(-c2ccc([C@@H](C)CN(C)C)cc2)c2c1[nH]c(=O)c1sccc12	Diacylglycerol kinase alpha (DGKA, Homo sapiens, UniProt P23743)	enzyme activity, inhibitor	0.1 µM	3.35
O=c1c(O)c(-c2ccc(O)cc2)oc2cc(O)cc(O)c12	CDK7 with cyclin H	enzyme activity, inhibitor, ADP detection	10 µM	32.2
O=C1C[C@@H](c2ccc(O)cc2)Oc2cc(O)cc(O)c21	AMY2	enzyme activity, inhibitor	50 µM, 30 min	32.8
CN1CC(Oc2cnc(C#N)cc2-c2ccn3nc(NC(=O)C4CC4)cc3c2)C1	Serine/threonine-protein kinase Chk1 (CHEK1, Homo sapiens, UniProt O14757)	enzyme activity, inhibitor	1 µM	-4
COc1ccc(NC(=O)CSc2nc(-c3ccccc3)cc(C)c2C#N)cc1	NT5E	enzyme activity, inhibitor, HPLC	10 µM	79
O[C@@H]1[C@H](O)[C@@H]2C[C@@H]2[C@H]1n1cnc2c(NCCC3CC3)nc(I)nc21	SLC6A2	ligand displacement, radioligand	10 µM	46
Nc1c(C(=O)Nc2nccs2)sc2nc(-c3ccccc3)cc(C(F)(F)F)c12	NT5E	enzyme activity, inhibitor	10 µM	8
C[C@H]1O[C@H](O[C@H]2[C@H](O)[C@@H](O)[C@@H](O[C@H]3[C@H](O)[C@@H](O)C(O)O[C@@H]3CO)O[C@@H]2CO)[C@H](O)[C@@H](O)[C@@H]1N[C@H]1C=C(CO)[C@@H](O)[C@H](O)[C@H]1O (stereo partly shown)	AMY2	enzyme activity, inhibitor	120 µg/mL	72.1
CC(C)OCCn1c(=S)[nH]c(=O)c2[nH]ccc21	Myeloperoxidase (MPO, Homo sapiens, UniProt P05164)	enzyme activity, inhibitor, fluorescence	300 pM	-0.594
O=C(NCc1cc(O)c(O)c(Br)c1)c1ccno1	rep main protease	enzyme activity, inhibitor, FRET	10 µM	107
Cc1ccc(N(O)N=Nc2ccc(S(=O)(=O)Nc3onc(C)c3C)cc2)cc1	AMY2	enzyme activity, inhibitor	120 µg/mL	31.6
CCCn1cnc2ccc(-c3ccc(NC(=O)CC4CC4)nc3)cc2c1=O	PIP4K2C	binding, competition with immobilised ligand	0.5 µM	99.5
COc1cc(CNC(=O)c2sc3nc(-c4ccccc4)cc(C(F)(F)F)c3c2N)cc(OC)c1OC	NT5E	enzyme activity, inhibitor	10 µM	-8
CC[C@H](C)[C@H](NC(=O)[C@H](CCC(N)=O)NC(=O)[C@H](CC(C)C)NC(=O)[C@H](CCSC)NC(=O)[C@H](CCCCN)NC(=O)[C@H](CO)NC(=O)[C@H](CO)NC(=O)[C@H](CCSC)NC(=O)[C@H](CC(C)C)NC(=O)[C@H](CC(N)=O)NC(=O)[C@@H](NC(=O)[C@@H](NC(=O)[C@H](CO)NC(=O)[C@H](CC(C)C)NC(=O)[C@H](CS)NC(=O)[C@H](CCCNC(=N)N)NC(=O)[C@H](CC(=O)O)NC(=O)[C@H](Cc1c[nH]c2ccccc12)NC(=O)[C@H](Cc1ccccc1)NC(=O)[C@H](C)NC(=O)[C@H](CCC(=O)O)NC(=O)[C@@H](N)CCCCN)C(C)C)[C@@H](C)CC)C(=O)N[C@@H](CC(N)=O)C(=O)N[C@@H](C)C(=O)O	Mitogen-activated protein kinase 3 (MAPK3, Homo sapiens, UniProt P27361)	enzyme activity, inhibitor, radiometric	1 µM	0
CCOc1nc2cccc(C(=O)O)c2n1Cc1ccc(-c2ccccc2-c2nnn[nH]2)cc1	SLC22A11	transporter uptake, inhibitor	25 µM	50 to 90
CCN(O)N=Nc1ccc(S(=O)(=O)Nc2onc(C)c2C)cc1	AMY2	enzyme activity, inhibitor	60 µg/mL	21.1

For quick reference, copied from above:
Structure (SMILES)	target	assay	setting	inhibition [%]
COc1ccc(C(=O)NCc2ccc(O)c(O)c2)cc1	rep papain-like protease	enzyme activity, inhibitor, FRET	10 µM	81.5
O=C(Nc1ccccc1F)c1ccc2c(c1)C(=O)NC2=O	MAOB	enzyme activity, inhibitor	1 µM	31.4
